Published values of several laboratories.
Protocols differ between the studies behind these lines.
T1: RNA aptamer, 5'-triphosphate; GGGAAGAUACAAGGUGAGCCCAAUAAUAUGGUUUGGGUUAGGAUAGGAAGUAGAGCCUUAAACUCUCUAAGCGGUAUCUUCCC
T2: RNA aptamer; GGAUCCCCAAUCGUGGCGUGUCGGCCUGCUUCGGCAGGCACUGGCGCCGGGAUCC
T3: RNA aptamer, 5'-triphosphate, 3'-UU overhang, 2',3'-cyclic phosphate; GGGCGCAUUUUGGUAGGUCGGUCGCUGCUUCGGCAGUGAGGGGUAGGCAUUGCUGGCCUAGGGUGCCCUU
T4: RNA aptamer; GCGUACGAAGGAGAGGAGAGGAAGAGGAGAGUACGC
T5: RNA aptamer, 2'-5' linkage G15-U16; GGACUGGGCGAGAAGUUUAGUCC
T6: RNA aptamer, 1-bp stem, UUCG tetraloop; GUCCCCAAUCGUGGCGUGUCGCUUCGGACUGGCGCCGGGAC
T7: RNA aptamer; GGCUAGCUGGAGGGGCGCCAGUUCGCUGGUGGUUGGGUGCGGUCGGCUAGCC
T8: RNA aptamer; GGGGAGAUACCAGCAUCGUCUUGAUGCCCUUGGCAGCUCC
T9: RNA aptamer; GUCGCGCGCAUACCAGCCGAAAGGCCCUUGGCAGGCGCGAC
T10: RNA aptamer; chain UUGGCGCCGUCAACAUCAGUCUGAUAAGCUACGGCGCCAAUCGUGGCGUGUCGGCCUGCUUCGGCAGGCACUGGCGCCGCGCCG; chain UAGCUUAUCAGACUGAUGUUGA
T11: RNA aptamer; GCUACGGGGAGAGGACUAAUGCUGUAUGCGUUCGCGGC

CN1C(=O)/C(=C/c2cc(F)c(O)c(F)c2)N=C1/C=N/O  binding (T1, RNA aptamer, 5'-triphosphate; X-ray crystallography): binds
CN(CCO)c1cc2sc(/C=C(\C#N)c3ccc(C#N)cc3)cc2s1  binding (T2, RNA aptamer; fluorescence turn-on; MgCl2 5 mM, KCl 100 mM): binds
Nc1nc2c(ncn2[C@@H]2O[C@H](COP(=O)(O)OP(=O)(O)OP(=O)(O)O)[C@@H](O)[C@H]2O)c(=O)[nH]1  binding (T3, RNA aptamer, 5'-triphosphate, 3'-UU overhang, 2',3'-cyclic phosphate; X-ray crystallography): binds
Cc1ccc2c(c1)sc(-c1ccc(N(C)C)cc1)[n+]2C  binding (T1, RNA aptamer, 5'-triphosphate; fluorescence turn-on): binds
C[n+]1cc(NC(=O)c2ccc3ccc4ccc(C(=O)Nc5cc6ccccc6[n+](C)c5)nc4c3n2)cc2ccccc21  binding (T4, RNA aptamer; competitor, competition fluorescence): binds
NC[C@@H]1O[C@H](O[C@H]2[C@@H](O)[C@H](O[C@@H]3[C@@H](O)[C@H](N)C[C@H](N)[C@H]3O[C@H]3O[C@H](CN)[C@@H](O)[C@H](O)[C@H]3N)O[C@@H]2CO)[C@H](N)[C@@H](O)[C@@H]1O  binding (T5, RNA aptamer, 2'-5' linkage G15-U16; ITC): no binding
CN(CCO)c1cc2sc(/C=C(\C#N)c3ccc(C#N)cc3)cc2s1  binding (T6, RNA aptamer, 1-bp stem, UUCG tetraloop; fluorescence turn-on): binds weakly
COc1cc(/C=C2\N=C(C)N(c3ccc([N+](C)(C)C)cc3)C2=O)cc(OC)c1O  binding (T7, RNA aptamer; fluorescence turn-on; MgCl2 5 mM, KCl 100 mM): binds
Cn1c(=O)c2c(ncn2C)n(C)c1=O  binding (T8, RNA aptamer; competitor, ThT displacement fluorescence; MgCl2 mM): no binding
Cn1c(=O)c2[nH]cnc2n(C)c1=O  binding (T9, RNA aptamer; NMR titration; with: theophylline): binds
CN(CCO)c1cc2sc(/C=C(\C#N)c3ccc(C#N)cc3)cc2s1  binding (T10, RNA aptamer; fluorescence activation, native PAGE): binds
CN1C=CC(=Cc2sc3ccccc3[n+]2CC(=O)NCCOCCOCCOCCNC(=O)CCCC[C@@H]2SC[C@@H]3NC(=O)N[C@@H]32)c2ccccc21  binding (T11, RNA aptamer; fluorescence light-up; 10 µM dye): binds

A few entries again:
CN(CCO)c1cc2sc(/C=C(\C#N)c3ccc(C#N)cc3)cc2s1  binding (T2, RNA aptamer; fluorescence turn-on; MgCl2 5 mM, KCl 100 mM): binds
